# Results collected from several papers.
# Protocols differ between the studies behind these lines.
SMILES,target,assay,system,setting,how to read,endpoint,value
CCc1nc(-c2ccc(-c3ccc(CCC(N)(CO)COP(=O)(O)O)cc3)cc2)co1 (stereo not shown),human S1P1 receptor,flow cytometry,CHO expressing human S1P1,"500 nM, 1 h",,receptor internalization,59%
[C-]#[O+].[C-]#[O+].[C-]#[O+].[C-]#[O+].[C-]#[O+].[C-]#[O+].[Cl-].[Cl-].[Re+].[Re+].c1cnc(-c2ncccn2)nc1,calf thymus DNA,ethidium bromide displacement,,"DNA 120 µM, 50% quenching, added: ethidium bromide 8 µM",,apparent binding constant,1.8e+06 M⁻¹
CC(=O)[C@@]1(O)CC[C@H]2[C@@H]3CCC4=CC(=O)CC[C@]4(C)[C@H]3CC[C@@]21C,GPR126 ECL1 S2 and ECL3 S6,conformational change,,,,BRET signal,increased
Cc1cc(C)nc(NC(=S)N2CCN(Cc3ccc(C(F)(F)F)cc3)CC2)c1,PHGDH human C234S,,,,relative to: C234S over wild type,potency loss fold,~3 fold
Cc1ccc(C(C)C)cc1.[Cl-].[Cl][Ru+].[Ru+].c1ccc(-c2cn(CCCCOc3ccccc3-c3nc4ccccc4s3)nn2)nc1,calf thymus DNA,UV absorption titration,,concentration not given,,change in molar absorptivity,22.5%
N=C(N)NCCC[C@H](N)C(=O)N1CCC[C@H]1C(=O)N[C@@H](CCCCN)C(=O)N1CCC[C@H]1C(=O)N[C@@H](CCC(N)=O)C(=O)N[C@@H](CCC(N)=O)C(=O)N[C@@H](Cc1ccccc1)C(=O)N[C@@H](Cc1ccccc1)C(=O)NCC(=O)O,"MRGPRX2, human","Ca2+ mobilization, agonist, Fura-2",LAD2 IgE-sensitized,37 °C,,EC50,11 µM
COC[C@@H](C)N[C@H]1CC[C@H](Nc2cc(-c3cccc(NCC4(C#N)CCOCC4)n3)c(Cl)cn2)CC1,"CDK9, human","inhibitor, immunoblot, refers to: MCL-1",MIA PaCa-2,"concentration not given, 6 h",,protein level,decreased
O=c1[nH]sc2ccccc12,HDAC isoforms other than HDAC6,,,concentration not given,,inhibition,no effect
CCN(CC)CCCC(C)NCc1nn2c(-c3ccccc3)nnc2s1 (stereo not shown),c-Myc (human),western blot,MV4-11,12.5 µM,,protein level,decreased
O=c1c2ccccc2oc2cc(OCc3cn(Cc4ccc(Br)cc4)nn3)cc(O)c12,Bax (human),western blot,A549,"17 and 34 µM, 12 h",,protein level,increased
COC(=O)c1cnc(-c2cnccn2)cc1C(=O)OC.COC(=O)c1cnc(-c2cnccn2)cc1C(=O)OC.F[P-](F)(F)(F)(F)F.[Ag+],calf thymus DNA,ethidium bromide displacement,,,,binding constant,1370 M⁻¹
CCCn1c(=O)c2[nH]c(-c3ccc(N(C)C(=O)c4ccc(C(F)(F)F)nc4)nc3)nc2n(CCC)c1=O,human adenosine A2B receptor,radioligand displacement,HEK293 membranes,,relative to: A2B over other adenosine receptors,selectivity ratio,> 400 fold
Nc1nc2ccc(Oc3ccccc3)cc2s1,"MeAIB/glutamine transporter, rat",MeAIB uptake,"hippocampal neurons, rat","20 µM, added: [14C]MeAIB 23.4 µM",,inhibition,> 90%
